Assay results of several laboratories.
Action: inhibitor
EGFR: Epidermal growth factor receptor (EGFR, Homo sapiens, UniProt P00533)
EGFR L858R/T790M: Epidermal growth factor receptor (EGFR, Homo sapiens, UniProt P00533, L858R/T790M)

SMILES = C=CC(=O)Nc1cc(-c2nn(C3CCN(CCNC(=O)[C@H](C)CCC45CC6CC(CC(C6)C4)C5)CC3)c3ncnc(N)c23)ccc1Oc1ccccc1; target = EGFR; effect on = enzyme activity; method = FRET; IC50 = > 10000 nM
SMILES = COc1cc(N2CCOCC2)ccc1Nc1ncc(Cl)c(Nc2ccccc2NS(C)(=O)=O)n1; target = Epidermal growth factor receptor (EGFR, Homo sapiens, UniProt P00533, L858R); effect on = enzyme activity; method = TR-FRET; IC50 = 7.83 nM
SMILES = Cc1nn(-c2cccc(N)c2)c(=O)c2cnc(Nc3ccc(N4CCNCC4)cc3)nc12; target = EGFR L858R/T790M; effect on = enzyme activity; IC50 = > 10000 nM
SMILES = C=CC(=O)Nc1cc(Nc2nccc(Nc3cc(Cl)c(F)cc3C(C)(C)O)n2)c(OC)cc1N1CC[C@H](N(C)C)C1; target = EGFR; effect on = EGFR phosphorylation; cells = A-431; IC50 = 362 nM
SMILES = COCC1CN(C2CCN(c3cc(OC)c(Nc4ncc(Br)c(Nc5ccc6c(c5P(C)(C)=O)OCCO6)n4)cc3C)CC2)C1; target = Epidermal growth factor receptor (EGFR, Homo sapiens, UniProt P00533, C797S/L858R/T790M); effect on = enzyme activity; method = TR-FRET; IC50 = 0.11 nM
SMILES = C=CC(=O)Nc1cc(Nc2ncnc(Nc3ccccc3C(F)(F)F)n2)c(OC)cc1N(C)CCN(C)C; target = EGFR L858R/T790M; effect on = enzyme activity; IC50 = 13 nM
SMILES = Cc1cc(NC2CCN(C)CC2)ccc1-c1cc2c(N3CCC[C@H](C(=O)NCc4ccc(OC(F)(F)F)cc4)C3)ncnc2[nH]1; target = EGFR; effect on = enzyme activity; method = mobility shift; IC50 = 981 nM
SMILES = C=CC(=O)Nc1cc(Nc2ncnc(Nc3cc(Cl)c(F)cc3C(C)(C)O)n2)c(OC)cc1N(C)CCN(C)C; target = EGFR; effect on = EGFR phosphorylation; cells = A-431; IC50 = 7.6 nM
SMILES = CCN(CC)CC(=O)Nc1cccc(-n2cc(-c3ccc4ccc(-c5cn(-c6cccc(NC(=O)CN(CC)CC)c6)nn5)cc4c3)nn2)c1; target = EGFR; effect on = enzyme activity; IC50 = > 10000 nM

Excerpt of the above:
SMILES = CCN(CC)CC(=O)Nc1cccc(-n2cc(-c3ccc4ccc(-c5cn(-c6cccc(NC(=O)CN(CC)CC)c6)nn5)cc4c3)nn2)c1; target = EGFR; effect on = enzyme activity; IC50 = > 10000 nM
